Literature values that unrelated publications cite.
Lines come from different studies, so protocols differ. Several values in a cell are separate wells, animals, samples, runs or records.

SMILES	target or system	assay	test system	setting	how to read	endpoint	result
COc1nc(-c2cc(C)c(NC(C)c3ccc(F)cc3)nn2)ccc1-n1cnc(C)c1 (stereo not shown)	hERG	channel function				IC50	6.2 µM
COc1ccc(Nc2nc(Nc3ccc(OCC[18F])cc3)ncc2Br)cc1			S180 tumour-bearing mice	intravenous, 120 min	baseline: tumour over blood	tumour to tissue ratio	3.84
O=C(O)CN1CCOCCN(CC(=O)O)Cc2cccc(n2)C1	protonation constant			0.15 M NaCl		log KH1	7.73
CCOC(=O)C(c1ccc2ccccc2c1O)c1c[nH]c2ccccc12 (stereo not shown)	COLO 205	cell viability				IC50	> 100 µM
CCCCCC(=O)NC(CC(=O)N(CC)CC)C(=O)NC(Cc1ccc(F)cc1)C(=O)NC(Cc1ccc(F)cc1F)C(=O)C1(C)CO1 (stereo not shown)	HepG2					CC50	> 20 µM
O=C(O)CN1CCNCCN(CC(=O)O)Cc2cccc(n2)C1	protonation constant			0.15 M NaCl		log KH3	3.47
CC1(N(CC(=O)O)CC(=O)O)CN(CC(=O)O)CCN(CC(=O)O)C1		pH-potentiometry, item: logK5H	0.15 M NaCl	25 °C		protonation constant (log)	1.51
Oc1c(Cc2c[nH]c3ccccc23)cc(Cl)c2cccnc12	COLO 320 ABCB1-resistant colon	cytotoxicity				IC50	4.97 µM and 4.91 µM and 4.74 µM
NCCN1CCN(CC(=O)O)Cc2cccc(n2)CN(CC(=O)O)CC1	protonation constant			0.15 M NaCl		log KH3	6.91
CCOC(=O)C(c1cc(Cl)c2cccnc2c1O)c1c[nH]c2ccccc12 (stereo not shown)	COLO 205	cytotoxicity				IC50	5.51 µM and 4.71 µM and 4.42 µM
Cc1ccc2c(c1)nc(CCN1C(=O)c3cccc4cccc(c34)C1=O)n2-c1ccncc1			Sprague-Dawley rat	oral, 10 mg/kg		Cmax	32 ng/mL
CCOC(=O)C(c1cc(Cl)c2cccnc2c1O)c1c[nH]c2ncccc12 (stereo not shown)	COLO 320 ABCB1-resistant colon	cytotoxicity				IC50	4.92 µM and 5.16 µM and 5.11 µM
O=C(O)CN(CC(=O)O)[C@H]1CCCC[C@@H]1N(CC(=O)O)Cc1ccccn1	protonation constant			0.15 M NaCl		log KH3	3.13
